{"data": "Published values gathered from unrelated publications", "note": "A part holds a random share of what one study measured. Changes are numbered by the printed parent chain."}
{"data": "Sample 1", "target": "RING finger protein unkempt homolog, zinc fingers 1-6, GST-SBP tag (UNK, Homo sapiens, UniProt Q9C0B0, residues 30-357)", "technique": "RNA Bind-n-Seq", "form": "RNA", "matrix": "in vitro", "tested at": "not given", "notes": "RNA with constant flanks, human and mouse sites, ends assumed", "relative to": "input RNA pool", "direction": "higher = stronger binding", "all sequences stand within": "GGGAGUUCUACAGUCCGACGAUC … CAACAGAGGAUUGAGCAUCA", "chain of UniProt Q9C0B0 (30-357, looked up)": "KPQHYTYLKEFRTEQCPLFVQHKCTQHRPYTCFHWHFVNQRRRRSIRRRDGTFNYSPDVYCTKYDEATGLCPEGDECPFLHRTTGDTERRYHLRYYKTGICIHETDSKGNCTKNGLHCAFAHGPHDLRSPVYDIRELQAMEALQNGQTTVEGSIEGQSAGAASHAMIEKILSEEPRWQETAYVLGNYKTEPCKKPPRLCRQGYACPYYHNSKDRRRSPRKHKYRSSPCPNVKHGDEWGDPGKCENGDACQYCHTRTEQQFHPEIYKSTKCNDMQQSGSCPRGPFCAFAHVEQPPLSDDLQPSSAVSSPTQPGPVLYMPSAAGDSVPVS"}
{"Oligonucleotide": "AUUGAAAAUUCACAGAUAAUUCAGAAAGAGGACUUAUGCAUUUCUCCAGGAAAGCUUGUCUGGGUUCUAUACUGUGAUCUCAUUUGCCUCGACUACGAUGGAAACAUUUUGGAUGCCUGC", "bound/input enrichment [ratio]": 0.197}
{"Oligonucleotide": "GAAACAUCUCCAGAGACAUCACUGAUCCAAGAUGAAGUUGCCCUCAAGCUGUCUGUAGAAAUCCCUUGCCCGCCUCCAGUUUCCGAAGCUGAUUUAUCCACGGAUGAGAAGGGUGAGGUC", "bound/input enrichment [ratio]": 0.102}
{"Oligonucleotide": "CAACCCCAACUCCUGACAUAGCUGUCGUCCUGAGUUUGACACAGCCCAGGCUGGGUGUCCUUUGGGAUCUGAUUUUGACCAAGAUGAAAGAAGAUGCCAGGCUCCCUCCUAGAGUGCCAC", "bound/input enrichment [ratio]": 0.204}
{"Oligonucleotide": "CAUUUAUUCAUUCUGUUUCUAUAUAGCAAAACUGAAUGUCAAAAGUACCUUCUGUCCACACACACAAAAUCUGCAUGUAUUGGUUGGUGGUCCUGUCCCCUAAAGAUCAAGCUACACAUC", "bound/input enrichment [ratio]": 0.419}
{"Oligonucleotide": "AUGAAAAGACUGUGACCUCCUCUGGGGUUUGGUGGCAAGUCUGGGCUGGCAGAGAUGGGAUAGCUUCAGGUUUUGCACCGGCACUUUGAUGACACUCUCCUCUGGUGAUGUUUUAUUUAC", "bound/input enrichment [ratio]": 0.246}
{"Oligonucleotide": "GGCCAGGAGCGAUUUCACACCAUCACAACCUCCUACUACAGAGGAGCAAUGGGCAUCAUGCUAGUGUAUGACAUCACCAACGGUAAAAGCUUUGAGAACAUCAGCAAGUGGCUUAGAAAC", "bound/input enrichment [ratio]": 0.272}
{"Oligonucleotide": "GUGGUGACUUGGGAUUUUUAACCUUAUAUAUCUUUUUCCUUUACUCAAAACAAAACAAUUUUUAGCACACUGAAAAAAAAAAAAAGCCAAAUGUUUUGUGCCUUUCUAAGGCAGCACUGU", "bound/input enrichment [ratio]": 3.6}
{"Oligonucleotide": "GCAAGAGUUCUGUCCUUUGGCUUGUAUAGGUUAUCUGUUGCUGUGUAAGAAACCACCUGCAAUGGCGAGGGCUUCUCUCGGUGGGGAUUCAGGAGCUGCUGAGCAUGGAGACUUUAGCAU", "bound/input enrichment [ratio]": 0.474}
{"data": "Sample 2", "target": "Ras GTPase-activating protein-binding protein 1, full length (G3BP1, Homo sapiens, UniProt Q13283)", "technique": "RNA Bind-n-Seq", "form": "RNA", "matrix": "in vitro", "tested at": "200 nM", "notes": "whole 134-nt RNA, ends assumed", "with": "150 mM LiCl", "relative to": "input library", "direction": "higher = stronger binding", "each molecule": "7-deaza-guanosine replaces G", "all sequences stand within": "GGGAGUUCUACAGUCCGACGAUC … UGGAAUUCUCGGGUGUCAAGG", "chain of UniProt Q13283 (whole entry, looked up)": "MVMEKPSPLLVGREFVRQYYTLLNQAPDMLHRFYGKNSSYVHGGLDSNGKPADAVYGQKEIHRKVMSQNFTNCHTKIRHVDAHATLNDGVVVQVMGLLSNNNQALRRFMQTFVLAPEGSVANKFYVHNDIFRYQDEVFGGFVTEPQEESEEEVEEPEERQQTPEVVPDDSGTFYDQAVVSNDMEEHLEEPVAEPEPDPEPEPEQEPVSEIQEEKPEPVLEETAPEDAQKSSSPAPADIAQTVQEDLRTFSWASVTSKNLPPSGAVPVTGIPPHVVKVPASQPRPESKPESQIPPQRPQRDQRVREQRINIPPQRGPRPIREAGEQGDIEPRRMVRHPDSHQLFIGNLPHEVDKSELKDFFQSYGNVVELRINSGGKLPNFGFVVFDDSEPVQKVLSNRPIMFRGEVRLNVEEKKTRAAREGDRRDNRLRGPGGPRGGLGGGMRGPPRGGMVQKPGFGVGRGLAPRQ"}
{"Oligonucleotide": "UGGCCCUGGUGGCAUGCGGGGAGGAAGAGGUGGCCUCAUGGAUCGUGGUGGUCCCGGUGGAAUGUUCAGAGGUGGCCGUGGUGGAGACCG", "log2 enrichment": 0.0217}
{"Oligonucleotide": "CUCAAGUCCUGUGCUACACAUCGUAUGUACCGAAUCGGUUUGGUGGAAAAAGGAAAGUAUUAUGUUACGCCGUUCGGAUCUGCACUUCCA", "log2 enrichment": 0.0216}
{"Oligonucleotide": "UGGCCCUGGUGGCAUGCGGGGAGGAAGAGGUGGCCUCAUGCAUCGUGGUGGUCCCGGUGGAAUGUUCAGAGGUGGCCGUGGUGGAGACAG", "log2 enrichment": 0.132}
{"Oligonucleotide": "CUCAAGUCCUGUGCUACACAUCGUAUGUACCGAAUCGGGGCGGGCGGGGCGGGGAAAGUAUUAUGUUACGCCGUUCGGAUCUGCACUUCC", "log2 enrichment": -0.178}
{"Oligonucleotide": "CAAGUCCUGUGCUACACAUCGUAUGUACCGAAUCGGGAAAAAGGGUGGGAAAGGGAAAGUAUUAUGUUACGCCGUUCGGAUCUGCACUUC", "log2 enrichment": -0.292}
{"Oligonucleotide": "UGACUUUAGAGGAGGAUCUGAUGGAUAUGGCAGUGGACGUGGAUUUGGGGAUGGCUAUAAUGGGUAUGGAGGAGGACCUGGAGGUGGCAA", "log2 enrichment": 0.123}
{"Oligonucleotide": "AAGUCCUGUGCUACACAUCGUAUGUACCGAAUCGGAAAGGAAAAAGGAAAAAAAGGAAAGUAUUAUGUUACGCCGUUCGGAUCUGCACUU", "log2 enrichment": -0.401}
{"Oligonucleotide": "CUCAAGUCCUGUGCUACACAUCGUAUGUACCGAAUCGGGAAAGGGUGGGAGGGAAAGUAUUAUGUUACGCCGUUCGGAUCUGCACUUCCA", "log2 enrichment": 0.0917}
{"data": "Sample 3", "target": "CCNE1, cyclin fold, Cln2 fusion (human)", "technique": "yeast growth competition, sequencing", "matrix": "yeast", "notes": "strong parent motif", "relative to": "not given", "direction": "higher = stronger binding", "parent": "SCAPER docking peptide (human); SNARRSLNFGGST"}
{"Substitution": "SNARRSMNFGGST [L7M]", "normalised enrichment score": 0.398}
{"Substitution": "SNARRSLNFCGST [G10C]", "normalised enrichment score": 0.492}
{"Substitution": "SNARRSLNFGGSI [T13I]", "normalised enrichment score": 1.31}
{"Substitution": "SEARRSLNFGGST [N2E]", "normalised enrichment score": 0.303}
{"Substitution": "SNARRSLNHGGST [F9H]", "normalised enrichment score": -0.195}
{"Substitution": "SNARRFLNFGGST [S6F]", "normalised enrichment score": 2.14}
{"Substitution": "SNMRRSLNFGGST [A3M]", "normalised enrichment score": 0.878}
{"Substitution": "SNARRSLMFGGST [N8M]", "normalised enrichment score": 0.505}
{"Substitution": "SYARRSLNFGGST [N2Y]", "normalised enrichment score": 0.54}
{"Substitution": "SNARRSDNFGGST [L7D]", "normalised enrichment score": 0.435}
{"Substitution": "SNARRSLNFGGSD [T13D]", "normalised enrichment score": 2.15}
{"Substitution": "SNARRSLHFGGST [N8H]", "normalised enrichment score": 0.924}
{"Substitution": "SNAFRSLNFGGST [R4F]", "normalised enrichment score": -0.143}
{"Substitution": "SNARRSLNFDGST [G10D]", "normalised enrichment score": 1.11}
{"data": "Sample 4", "target": "Histone acetyltransferase KAT6A, winged helix 2, GST fusion (KAT6A, Homo sapiens, UniProt Q92794, residues 85-181)", "technique": "protein binding microarray", "form": "double-stranded DNA, one strand shown", "matrix": "in vitro", "tested at": "not given", "notes": "8-mer, flanks averaged, mean of 2 arrays, mostly near background", "relative to": "not given", "direction": "higher = stronger binding", "Residues (chain)": "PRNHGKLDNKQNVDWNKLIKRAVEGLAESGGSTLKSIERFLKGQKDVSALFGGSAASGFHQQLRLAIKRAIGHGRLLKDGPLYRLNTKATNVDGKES"}
{"Oligonucleotide": "GGGGGACC", "E-score": 0.0128}
{"Oligonucleotide": "AAAGAGCC", "E-score": -0.163}
{"Oligonucleotide": "CCGATTCG", "E-score": 0.165}
{"Oligonucleotide": "CATTTAAA", "E-score": 0.19}
{"Oligonucleotide": "CCCTGTAC", "E-score": -0.111}
{"Oligonucleotide": "TAACGGAA", "E-score": -0.063}
{"Oligonucleotide": "CGACACAA", "E-score": -0.0154}
{"Oligonucleotide": "ACAGTCAG", "E-score": -0.0666}
{"Oligonucleotide": "ACTACCCA", "E-score": -0.106}
{"Oligonucleotide": "CACGTTAC", "E-score": -0.139}
{"Oligonucleotide": "CACGCGGA", "E-score": 0.14}
{"Oligonucleotide": "GATACGGA", "E-score": -0.0824}
{"Oligonucleotide": "AAACTGTC", "E-score": -0.0725}
{"Oligonucleotide": "CCAGCCCC", "E-score": 0.153}
{"Oligonucleotide": "CGCGGTAG", "E-score": 0.133}
{"note": "Repeated from above (sample 1):"}
{"Oligonucleotide": "CAACCCCAACUCCUGACAUAGCUGUCGUCCUGAGUUUGACACAGCCCAGGCUGGGUGUCCUUUGGGAUCUGAUUUUGACCAAGAUGAAAGAAGAUGCCAGGCUCCCUCCUAGAGUGCCAC", "bound/input enrichment [ratio]": 0.204}
{"Oligonucleotide": "CAUUUAUUCAUUCUGUUUCUAUAUAGCAAAACUGAAUGUCAAAAGUACCUUCUGUCCACACACACAAAAUCUGCAUGUAUUGGUUGGUGGUCCUGUCCCCUAAAGAUCAAGCUACACAUC", "bound/input enrichment [ratio]": 0.419}
{"Oligonucleotide": "AUGAAAAGACUGUGACCUCCUCUGGGGUUUGGUGGCAAGUCUGGGCUGGCAGAGAUGGGAUAGCUUCAGGUUUUGCACCGGCACUUUGAUGACACUCUCCUCUGGUGAUGUUUUAUUUAC", "bound/input enrichment [ratio]": 0.246}
